Measured values gathered from unrelated publications.
Lines come from different studies, so protocols differ. “And” joins repeats or separate records; there may be more than shown.
Target: Ephrin type-A receptor 4 (EPHA4, Homo sapiens, UniProt P54764)

SMILES	test	conditions	scale	quantity	value
COc1cc(Nc2nccc(-c3cnn4nc(OC)ccc34)n2)cc(C(F)(F)F)c1	binding, competition with immobilised ligand	1 µM	–	remaining binding	100%
CN1CC[C@@H](COc2cnc(C#N)cc2-c2ccn3nc(NC(=O)C4CC4)cc3c2)C1	enzyme activity, inhibitor	1 µM	–	inhibition	5%
NC(=O)C[C@H]1CCc2sc3ncnc(O[C@H]4CC[C@H](N5CCOCC5)CC4)c3c21	enzyme activity, inhibitor	10 µM	–	inhibition	15%
COc1c(OCCCN2CCOCC2)ccc2c1N=C(NC(=O)c1cnc(N)nc1)N1CCN=C21	kinase activity, inhibitor	1 µM	reference: untreated control	remaining activity	119%
C=CC(=O)Nc1cccc(-c2cnc3[nH]cc(C(=O)NC(C)(C)C)c3n2)c1	enzyme activity, inhibitor	0.1 µM	–	inhibition	2%
O=C(Cc1ccc(OCc2ccccc2)cc1)NC1(C(=O)O)CCN(C(=O)c2ccc(-c3cccc(Cl)c3)cc2)CC1	enzyme activity, inhibitor	10 µM	–	activity vs control	116%
Cc1cccc(O[C@H]2CCC[C@@H](C(C)CNCc3ccncc3)C2)c1 (relative stereo)	cell-free assay	10 µM	–	inhibition	-5%
O=C=[N][Ru-4]123([n]4c5ccc(O)cc5c5c6c(c7cc(F)c[n+]1c7c54)C(=O)NC6=O)[S+]1CC[S+]2CC[S+]3CC1 (stereo not drawn)	enzyme activity	100 nM, human enzyme, with: 10 µM ATP	reference: untreated	remaining activity	107%
C=CC(=O)N1CCCC(n2c(=O)c3ncccc3n(Cc3ccc(Oc4ccccc4)cc3)c2=O)C1 (stereo not drawn)	cell-free assay, competition with immobilised ligand	1 µM	–	remaining binding	100%
CCN1CCN(Cc2ccc(NC(=O)c3ccc(C)c(NC(=O)c4cncc(-c5cccs5)c4)c3)cc2C(F)(F)F)CC1	binding, competition with immobilised ligand	1 µM	–	remaining binding	2.7%
C=CC(=O)N1CCc2ccc(-n3c(=O)ccc4cnc5ccc(-c6cnn(C)c6)cc5c43)cc21	KINOMEscan	1 µM	reference: DMSO control	remaining binding	92%
CN1CCN(Cc2ccc(-c3ccc(CO[C@H]4CCC[C@@H]4NC(=O)c4cc(-c5cnn(C)c5)cnc4N)cc3)cc2)CC1	enzyme activity, inhibitor	0.1 µM	–	inhibition	11%
CCn1cc(C(=O)O)c(=O)c2c(N)c(F)c(NC3CCCCC3)cc21	kinase activity	0.1 µM, with: ATP at Km	–	inhibition	14%
COCC12C(=O)NC3C4(C(OC)CC1O)C1CC5(O)C(OC)C(O)C(OC(C)=O)(C1C5OC(=O)c1ccccc1)C3(O)C(OC)C24 (stereo not drawn)	kinase activity, inhibitor, ProQinase kinase profiling	25 µM	reference: control	remaining activity	92% and 103%
C=CC(=O)N1Cc2nc(-c3cc(-c4cc(Cl)cnc4Cl)c(F)cc3F)n(-c3ccncn3)c2C1	cell-free assay	1 µM	–	inhibition	-5.9%

Excerpt of the above:
SMILES	test	conditions	scale	quantity	value
CN1CC[C@@H](COc2cnc(C#N)cc2-c2ccn3nc(NC(=O)C4CC4)cc3c2)C1	enzyme activity, inhibitor	1 µM	–	inhibition	5%
Cc1cccc(O[C@H]2CCC[C@@H](C(C)CNCc3ccncc3)C2)c1 (relative stereo)	cell-free assay	10 µM	–	inhibition	-5%
